Experimental data from different studies.
Numbered parts are unrelated; each lists some results of a single study.

Series 1 — method: protein binding microarray; molecule type: double-stranded DNA, one strand shown; medium: in vitro; tested at: not given; reference: not given; direction: higher = stronger binding
Target: Histone acetyltransferase KAT6A, winged helix 1, GST fusion (KAT6A, Homo sapiens, UniProt Q92794, residues 1-85)
Notes: 8-mer, flanks averaged, mean of 2 arrays, mostly near background
Construct (chain): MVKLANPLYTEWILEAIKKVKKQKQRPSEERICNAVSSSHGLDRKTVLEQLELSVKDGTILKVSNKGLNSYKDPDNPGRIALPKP
Oligonucleotide | E-score
CACCTAGG | -0.161
TAGGTGGA | -0.268
ATAGAGTC | 0.0478
ACACATAA | -0.187
ATACTTAG | -0.105
ATTGAATA | -0.194

Series 2 — method: protein-binding microarray; molecule type: double-stranded DNA, one strand shown; medium: in vitro; tested at: 250 nM; notes: 60-bp whole probe; with: salmon DNA 0.4 mg/ml; reference: random background probes; direction: higher = stronger binding
Target: Interferon regulatory factor 5, full length, phosphomimetic (IRF5, Homo sapiens, UniProt Q13568-2, residues 1-514, K96S/S451D/S453D/S456D/S462D)
Oligonucleotide | log fluorescence
GCCTAGCACTTAGGACTGGGGTTTCGGTCAGTGCTAGTCTTGATTCGCTTGACGCTGCTG | 6.27 z-score
GCCTAGCACGACGGTATGGGGACTGGGGACGTGCTAGTCTTGATTCGCTTGACGCTGCTG | -0.0192 z-score
GCCTAGCACGACGGACTGCTTATCCTGGCGTGCTAGGTCTTGATTCGCTTGACGCTGCTG | -0.738 z-score

Series 3 — method: Spec-seq; molecule type: double-stranded DNA, one strand shown; medium: in vitro; tested at: not given; notes: whole probe, mean of replicates; reference: not given; direction: lower = stronger binding
Target: POU domain, class 5, transcription factor 1, POU domain (Pou5f1, Mus musculus, UniProt P20263, residues 131-289)
UniProt P20263, sequence (131-289, looked up): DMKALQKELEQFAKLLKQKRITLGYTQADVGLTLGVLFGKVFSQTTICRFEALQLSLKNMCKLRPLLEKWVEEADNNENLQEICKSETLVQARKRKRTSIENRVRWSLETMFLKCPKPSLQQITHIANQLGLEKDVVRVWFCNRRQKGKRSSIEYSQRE
Oligonucleotide | relative binding energy
GAGTCGTCTCGTCAGCACTAGGTAATCCGTAGAGCACTCAGGTC | 0.838 ln ratio
GAGTCGTCTCGTCAGCACATGAAAATCCGTAGAGCACTCAGGTC | -0.17 ln ratio
GAGTCGTCTCGTCAGCACAGATTAATCCGTAGAGCACTCAGGTC | 0.104 ln ratio

Mixed results
Substance | target | test | system | setting | scale | endpoint | result
PhoQ, residues 284 288 289 292 302 303 NSMLDC | PhoP, residues 12 14 15 18 19 LHTVM (Escherichia coli, UniProt P23836) | Sort-seq, item: YFP reporter | E. coli | PhoQ-PhoP variant library, with: 10 µM Mg2+ | reference: high Mg2+ state, higher = stronger signaling | fold induction | 16.3

A few entries again (series 3):
Oligonucleotide | relative binding energy
GAGTCGTCTCGTCAGCACTAGGTAATCCGTAGAGCACTCAGGTC | 0.838 ln ratio
